Assay results from different studies.
Parts stem from different laboratories: compare values within a part only.

Sample 1
Target: Histone acetyltransferase KAT6A, winged helix 2, GST fusion (KAT6A, Homo sapiens, UniProt Q92794, residues 85-181)
Technique: protein binding microarray
Form: double-stranded DNA, one strand shown
Medium: in vitro
Tested at: not given
Setting: 8-mer, flanks averaged, mean of 2 arrays, mostly near background
Relative to: not given
Direction: higher = stronger binding
Construct (chain): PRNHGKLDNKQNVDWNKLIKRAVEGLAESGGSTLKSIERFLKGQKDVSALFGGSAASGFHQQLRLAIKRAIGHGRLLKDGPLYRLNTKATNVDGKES
For `CAGAGCGG`, the E-score was 0.029.
`GACCTCTC` has an E-score of 0.0316.
With `TCTCTGAA` the E-score was -0.0354.
`GCCCAAGA` has an E-score of 0.00271.
For `GGGGGATA`, the E-score was -0.155.
For `ACCTGTCC`, the E-score was -0.101.
For `CAATCTCC`, the E-score was -0.0583.
`ATCAGCTC` has an E-score of 0.113.
`ACGTTATA` gave an E-score of -0.078.
With `AATACATG` the E-score was -0.204.
With `TCAACAGA` the E-score was 0.0251.
With `GACCGGGA` the E-score was -0.0313.
`CTATTTCA` gave an E-score of 0.159.
`AACACACG` has an E-score of -0.135.
`GTCCGCAC` has an E-score of 0.213.
With `CGTAGTAA` the E-score was -0.209.
`AGCTACAC` has an E-score of -0.128.
For `ATTTTACC`, the E-score was 0.0465.
`GGAGCGAA` gave an E-score of 0.147.
With `CTTGCACC` the E-score was -0.0201.
`CCGCCACC` gave an E-score of 0.0991.
`CAATGGCC` has an E-score of -0.278.
With `ACCTCTTA` the E-score was -0.0498.
The E-score of `AAGTTACG` is reported as 0.0268.
`CTGTCACA` gave an E-score of -0.0402.

Sample 2
Target: Centromere-binding protein 1, full length, N-terminal tag (CBF1, Saccharomyces cerevisiae, UniProt P17106, residues 1-351)
UniProt P17106, sequence (whole entry, looked up): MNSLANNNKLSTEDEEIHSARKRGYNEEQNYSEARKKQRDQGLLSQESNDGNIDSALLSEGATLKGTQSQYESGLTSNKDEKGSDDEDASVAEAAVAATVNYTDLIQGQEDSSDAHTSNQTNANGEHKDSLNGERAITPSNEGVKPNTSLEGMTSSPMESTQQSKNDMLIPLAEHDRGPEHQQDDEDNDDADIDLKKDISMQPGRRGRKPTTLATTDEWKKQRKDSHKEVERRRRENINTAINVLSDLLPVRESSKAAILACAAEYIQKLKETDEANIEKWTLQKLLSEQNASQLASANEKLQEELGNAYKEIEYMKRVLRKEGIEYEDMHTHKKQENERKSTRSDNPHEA
Technique: protein-binding microarray
Form: double-stranded DNA, one strand shown
Medium: in vitro
Tested at: 0.8 µM
Setting: whole 60-bp probe, no competitor
Direction: higher = stronger binding
All sequences stand within: … GTCTTGATTCGCTTGACGCTGCTG
`CTAGATACTTAGGTATACCTGACGGGCAGTCCTTTC` gave a fluorescence intensity of 494 a.u.
With `GAATTATAAGCTCATCACCTCTTTATTAAGTAGTAG` the fluorescence intensity was 530 a.u.
For `CTATTTTGAAGTGGTGACGTTACCGCTCTTCGTTTC`, the fluorescence intensity was 520 a.u.
For `CTATTAGTTGAACATGTGACGAAAGCTCTGCTATTC`, the fluorescence intensity was 6550 a.u.
For `CTAGACTAATCGGCGCATGTTTTACACCTCTTTTTC`, the fluorescence intensity was 517 a.u.
With `GAAAATTACCCATAAACCACCACCTAGTGTCAATAG` the fluorescence intensity was 528 a.u.
The fluorescence intensity of `GAAAGCCATCAATGTCACCCATCTTTTGTGGATTAG` is reported as 484 a.u.
With `GAAGTAGCTCTTTATCACGCACACCTCATTTGCTAG` the fluorescence intensity was 604 a.u.
With `GAAGAAAAATAGCTGCACGCTTTTCCAGGAATATAG` the fluorescence intensity was 586 a.u.
`CTACGCGATGTTGCAAGCGTGACAGATCTATACTTC` has a fluorescence intensity of 673 a.u.
The fluorescence intensity of `GAAAAGGGCCTTCGTCATCACTAACTGGTCCAATAG` is reported as 531 a.u.
The fluorescence intensity of `CTACGAGCCAAGTGACACCAGCAAACAAGGAAATTC` is reported as 558 a.u.
The fluorescence intensity of `CTAAAATCCCGTAAACTCATGATGTGAATTTTGTTC` is reported as 560 a.u.
`GAATAAAAGAATAGACACGTTTAAGGTATATTTTAG` gave a fluorescence intensity of 572 a.u.
For `CTATCGCCGGTGGCCCGTGTGGGTTAAGGGAGGTTC`, the fluorescence intensity was 493 a.u.
`GAATTTTTATAAATCAAAGTCACAAAAAGTCCTTAG` gave a fluorescence intensity of 588 a.u.
With `CTAGCTCTCTAAGTTCGTGTGCAAGCTGATTATTTC` the fluorescence intensity was 504 a.u.
`GAAGATCGGTAATAGAACATCAGGATTACTCTGTAG` has a fluorescence intensity of 513 a.u.
`CTATAAGTAATGATTTACGTGCCATTTTTTTTATTC` has a fluorescence intensity of 507 a.u.
`CTACCGGGTCCCACACATGTGCGCCCTTAGCCTTTC` has a fluorescence intensity of 661 a.u.
The fluorescence intensity of `GAACTCGTTTTTAGCCACACCATACCCCCTTTATAG` is reported as 476 a.u.
With `CTATTGAACAATAAGCACGACCTTCACCTTAGGTTC` the fluorescence intensity was 521 a.u.
The fluorescence intensity of `TGTACGAAGCTATTGCACACGATTATAGTAGTTAGG` is reported as 548 a.u.
With `GAAACCGTCGCTGTGCACGTGACACTCACTTCATAG` the fluorescence intensity was 20900 a.u.

Sample 3
Target: Prothrombin, mature alpha-thrombin (F2, Homo sapiens, UniProt P00734)
Technique: aptamer microarray, sandwich
Form: DNA with 2'F-ANA
Medium: in vitro
Tested at: 200 nM
Setting: whole 15-mer aptamer, many near background
With: Cy3 exosite-II aptamer, 400 nM
Direction: higher = stronger binding
Sequence: GGTTGGTGTGGTTGG
`2'F-ANA at 1 12 15`: “mean fluorescence intensity” 379 a.u.
For `2'F-ANA at 1 2 3 4 7 8 12`, “mean fluorescence intensity” read 562 a.u.
`2'F-ANA at 4 6 9 12 14 15` — result for “mean fluorescence intensity”: 91.1 a.u.
Under “mean fluorescence intensity”, `2'F-ANA at 1 4 5 6 7 8 9 10 11 12 14 15` is recorded as 52.7 a.u.
For `2'F-ANA at 2 5 10 13 14`, “mean fluorescence intensity” read 45.7 a.u.
`2'F-ANA at 1 2 3 4 5 7 8 11 13 14` — result for “mean fluorescence intensity”: 48 a.u.
For `2'F-ANA at 3 4 6 9 10 11 12 13 15`, “mean fluorescence intensity” read 231 a.u.
`2'F-ANA at 1 2 3 4 6 7 8 9 10 12 13`: “mean fluorescence intensity” 67.8 a.u.
Under “mean fluorescence intensity”, `2'F-ANA at 3 4 5 7 8 9 11 12 14 15` is recorded as 72.6 a.u.
For `2'F-ANA at 5 8 11 12 14 15`, “mean fluorescence intensity” read 52.4 a.u.
`2'F-ANA at 1 3 5 6 8 11 12 14 15`: “mean fluorescence intensity” 50.6 a.u.
For `2'F-ANA at 4 5 8 10 11 13 14 15`, “mean fluorescence intensity” read 52.1 a.u.
Under “mean fluorescence intensity”, `2'F-ANA at 5 6 7 8 10 12 15` is recorded as 50.3 a.u.
`2'F-ANA at 1 2 4 5 8 11 12 13`: “mean fluorescence intensity” 69.7 a.u.
Under “mean fluorescence intensity”, `2'F-ANA at 1 4 7 8 10 11 12 14 15` is recorded as 83.3 a.u.
`2'F-ANA at 1 3 5 8 13 14`: “mean fluorescence intensity” 55.2 a.u.

Sample 4
Target: Fragile X messenger ribonucleoprotein 1, C-terminal low-complexity region (Fmr1, Mus musculus, UniProt P35922)
Technique: RNA Bind-n-Seq
Form: RNA
Medium: in vitro
Tested at: 200 nM
Setting: whole 134-nt RNA, ends assumed
With: 150 mM KCl
Relative to: input library
Direction: higher = stronger binding
All sequences stand within: GGGAGUUCUACAGUCCGACGAUC … UGGAAUUCUCGGGUGUCAAGG
With `UGGCCCUGGUGGCAUGCGGGGAGGAAGAGGUGGCCUCAUGGAUCGUGGUGGUCCCGGUUGAAUGUUCAGAGGUGGCCGUGGUGGAGACAG` the log2 enrichment was -0.224.
The log2 enrichment of `CACAGACAACACGCACCCACACAGACACAGAGGGAAGGGGUUGGGAUGGGGACAGGGCGCACAGCAGGGCGGGGUAGGACCCCAGCCCCU` is reported as 1.15.
With `UGGCCCUGGUGGCAUGCGGGGAGGAAGAGGUGGCCUCAUGGAUGGUGGUGGUCCCGGUGGAAUGUUCAGAGGUGGCCGUGGUGGAGACAG` the log2 enrichment was 0.349.
`GUCCUGUGCUACACAUCGUAUGUACCGAAUCGGGUUUUUGGGUUUUUGGUUUUUGGGGAAAGUAUUAUGUUACGCCGUUCGGAUCUGCAC` gave a log2 enrichment of -0.157.
For `CACAGACAACACGCACCCACACAGACACAGAGGGAAGGGGUUGGGAUGGGGACAGGGUGCACAGCAGGGCGGGGUAGGACCCCAAACCCU`, the log2 enrichment was 1.26.
For `AAGUCCUGUGCUACACAUCGUAUGUACCGAAUCGGUUUUUUUGGAAAAAAAGGAGGAAAGUAUUAUGUUACGCCGUUCGGAUCUGCACUU`, the log2 enrichment was -1.07.
`UGGGAGGUGGAUUUUGUUUAUUUUUUUAACUCAUUUCCAGGGGUGGGAAUUUUUUUUUAAUAUGUGUCAUGAAUAAAGUUGUUUUUGAAA` has a log2 enrichment of 0.233.
The log2 enrichment of `UAACUUUAGAGGAGGAUCUGAUGGAUAUGGCAGUGGACGUGGAUUUGGGGAUGGCUAUAAUGGGUAUGGAGGAGGACCUGGAGGUAGCAA` is reported as 0.29.
With `AAGUCCUGUGCUACACAUCGUAUGUACCGAAUCGGGGAAAAGGAAAAGGGAAAAGGGAAAGUAUUAUGUUACGCCGUUCGGAUCUGCACU` the log2 enrichment was -0.343.
With `GUCCUGUGCUACACAUCGUAUGUACCGAAUCGGGAAAAAGGGAAAAAGGGAAAAAGGGAAAGUAUUAUGUUACGCCGUUCGGAUCUGCAC` the log2 enrichment was -0.542.

A few entries again (sample 2):
`GAATTTTTATAAATCAAAGTCACAAAAAGTCCTTAG` gave a fluorescence intensity of 588 a.u.
The fluorescence intensity of `GAAAAGGGCCTTCGTCATCACTAACTGGTCCAATAG` is reported as 531 a.u.
For `CTAGACTAATCGGCGCATGTTTTACACCTCTTTTTC`, the fluorescence intensity was 517 a.u.
The fluorescence intensity of `CTAAAATCCCGTAAACTCATGATGTGAATTTTGTTC` is reported as 560 a.u.
With `GAAACCGTCGCTGTGCACGTGACACTCACTTCATAG` the fluorescence intensity was 20900 a.u.
With `CTAGCTCTCTAAGTTCGTGTGCAAGCTGATTATTTC` the fluorescence intensity was 504 a.u.
With `CTATTGAACAATAAGCACGACCTTCACCTTAGGTTC` the fluorescence intensity was 521 a.u.
